Assay results from different studies.
Every numbered part comes from another study and shows a few of its results, in no order. Substitutions count along the parent as printed.
UniProt P62256, sequence (whole entry, looked up): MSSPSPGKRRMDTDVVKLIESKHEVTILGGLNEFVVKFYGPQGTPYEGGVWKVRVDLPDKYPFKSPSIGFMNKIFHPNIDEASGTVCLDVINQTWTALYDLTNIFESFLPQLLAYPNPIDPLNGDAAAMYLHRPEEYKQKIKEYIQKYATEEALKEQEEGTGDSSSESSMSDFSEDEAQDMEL
UniProt O14933, sequence (whole entry, looked up): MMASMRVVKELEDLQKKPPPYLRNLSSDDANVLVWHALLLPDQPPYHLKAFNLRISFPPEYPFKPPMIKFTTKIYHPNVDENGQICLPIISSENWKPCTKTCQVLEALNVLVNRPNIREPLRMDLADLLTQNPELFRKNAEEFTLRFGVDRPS
UniProt P49427, sequence (whole entry, looked up): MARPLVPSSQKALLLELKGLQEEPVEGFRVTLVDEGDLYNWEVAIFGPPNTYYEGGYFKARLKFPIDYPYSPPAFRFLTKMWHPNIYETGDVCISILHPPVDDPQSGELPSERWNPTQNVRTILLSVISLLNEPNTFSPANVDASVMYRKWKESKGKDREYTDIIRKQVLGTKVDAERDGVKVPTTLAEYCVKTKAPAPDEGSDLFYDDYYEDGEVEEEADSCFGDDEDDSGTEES
UniProt P61088, sequence (whole entry, looked up): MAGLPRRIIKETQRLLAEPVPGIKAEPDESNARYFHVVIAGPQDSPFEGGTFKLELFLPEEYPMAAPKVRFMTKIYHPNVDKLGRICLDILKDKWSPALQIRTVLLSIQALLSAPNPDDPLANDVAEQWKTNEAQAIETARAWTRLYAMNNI
UniProt Q13404, sequence (whole entry, looked up): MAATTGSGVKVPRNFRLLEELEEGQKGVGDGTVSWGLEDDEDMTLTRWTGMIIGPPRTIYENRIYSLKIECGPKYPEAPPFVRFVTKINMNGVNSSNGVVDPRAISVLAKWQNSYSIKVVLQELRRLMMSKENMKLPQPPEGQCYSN
UniProt Q5VVX9, sequence (whole entry, looked up): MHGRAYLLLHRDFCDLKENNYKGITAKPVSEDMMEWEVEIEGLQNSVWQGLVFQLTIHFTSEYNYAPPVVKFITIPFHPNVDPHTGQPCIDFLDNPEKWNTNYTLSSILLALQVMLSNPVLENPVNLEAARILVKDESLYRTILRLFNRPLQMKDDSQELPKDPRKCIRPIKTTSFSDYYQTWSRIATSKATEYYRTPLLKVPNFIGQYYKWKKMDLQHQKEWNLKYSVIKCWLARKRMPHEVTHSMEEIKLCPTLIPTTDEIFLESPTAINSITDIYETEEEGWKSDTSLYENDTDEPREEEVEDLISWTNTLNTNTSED
UniProt Q8WVN8, sequence (whole entry, looked up): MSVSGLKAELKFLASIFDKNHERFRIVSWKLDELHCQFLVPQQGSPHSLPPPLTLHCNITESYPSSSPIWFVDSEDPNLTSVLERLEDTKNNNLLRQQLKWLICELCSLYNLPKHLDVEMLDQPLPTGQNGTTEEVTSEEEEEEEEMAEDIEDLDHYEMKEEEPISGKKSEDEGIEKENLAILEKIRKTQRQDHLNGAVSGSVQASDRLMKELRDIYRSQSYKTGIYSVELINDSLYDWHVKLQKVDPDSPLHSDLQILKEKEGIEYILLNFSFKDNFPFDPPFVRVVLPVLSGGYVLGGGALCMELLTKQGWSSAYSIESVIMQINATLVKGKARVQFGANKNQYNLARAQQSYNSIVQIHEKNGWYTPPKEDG
UniProt Q15819, sequence (whole entry, looked up): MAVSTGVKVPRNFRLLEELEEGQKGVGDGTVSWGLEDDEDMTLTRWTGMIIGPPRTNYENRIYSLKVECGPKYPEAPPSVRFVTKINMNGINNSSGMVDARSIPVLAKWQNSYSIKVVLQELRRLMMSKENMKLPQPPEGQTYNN
UniProt P51965, sequence (whole entry, looked up): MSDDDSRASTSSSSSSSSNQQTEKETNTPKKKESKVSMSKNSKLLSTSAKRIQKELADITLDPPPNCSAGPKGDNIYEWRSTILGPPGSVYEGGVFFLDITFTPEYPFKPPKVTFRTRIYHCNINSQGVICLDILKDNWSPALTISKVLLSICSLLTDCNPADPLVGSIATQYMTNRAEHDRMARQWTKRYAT
UniProt P60604, sequence (whole entry, looked up): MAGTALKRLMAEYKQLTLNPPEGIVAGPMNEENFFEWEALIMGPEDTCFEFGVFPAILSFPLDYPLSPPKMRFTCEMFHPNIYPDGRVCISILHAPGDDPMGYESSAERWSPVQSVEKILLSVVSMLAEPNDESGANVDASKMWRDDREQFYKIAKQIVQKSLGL

Series 1 — technique: competition protein-binding microarray; form: double-stranded DNA, one strand shown; medium: in vitro; tested at: 2 µM; with: Pho4 competitor, 0.05 µM; direction: higher = stronger binding; shared flanks, not repeated: … GTCTTGATTCGCTTGACGCTGCTG
Target: Centromere-binding protein 1, full length, His-tagged (CBF1, Saccharomyces cerevisiae, UniProt P17106, residues 1-351)
UniProt P17106, sequence (whole entry, looked up): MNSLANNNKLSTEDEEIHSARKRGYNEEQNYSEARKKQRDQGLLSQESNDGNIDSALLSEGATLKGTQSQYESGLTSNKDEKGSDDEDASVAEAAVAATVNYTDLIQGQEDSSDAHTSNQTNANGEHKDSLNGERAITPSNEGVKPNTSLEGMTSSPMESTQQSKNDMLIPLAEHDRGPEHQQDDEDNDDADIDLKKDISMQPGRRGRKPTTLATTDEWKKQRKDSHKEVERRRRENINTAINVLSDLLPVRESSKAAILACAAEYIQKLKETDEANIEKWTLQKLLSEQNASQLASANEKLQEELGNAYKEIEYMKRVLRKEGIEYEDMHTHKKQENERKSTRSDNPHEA
Setting: whole 60-bp probe, lowest competitor level
With `ATGAAGATTCTTGTTCATGTGATACAGCTTTTCTAG` the fluorescence intensity was 621 a.u.
For `CGGGGTTAAGTTTGTCACGGTACTTGCTTGCAGCAG`, the fluorescence intensity was 192 a.u.
`ATCCCTGTCGTTACGGTCGTGCCAGTTACACTGGGA` gave a fluorescence intensity of 74.5 a.u.
The fluorescence intensity of `AAAGCGGTAATTTGAACCGTGGGTGCAGATATCTAT` is reported as 62.6 a.u.
With `AACTCACCCCATTTGCTCGTGGGTAGTGACGACCGC` the fluorescence intensity was 65.5 a.u.
`CTGAATTCTTTAAAGAGTGTGACAGTGTCTTTTCCG` has a fluorescence intensity of 75.1 a.u.
The fluorescence intensity of `CACTTCCTGGGCATCCACATGCGAAGTTGAGCTAAA` is reported as 70.7 a.u.
`GCCATTGGATACCGTCACGTGGGTAATGGTAATCTA` gave a fluorescence intensity of 3880 a.u.
For `AAATTACTAAGTTGGTAGGTGGGTGACGCCGTATGA`, the fluorescence intensity was 67.5 a.u.
For `ATAAGTTTCCCTGGTTACGTGTTGAAGCAGACCGCA`, the fluorescence intensity was 102 a.u.
With `GGCCCGGTGGGTCCACGCGTGTGTTGCGGTTAGAGC` the fluorescence intensity was 55.5 a.u.
The fluorescence intensity of `TACACCGCACTTTCTGGCGTGCTTTGATCTGGCTTG` is reported as 56.3 a.u.
`AAAGCGGTAATTTGCGTTGTGGGTGCAGATATCTAT` gave a fluorescence intensity of 87.1 a.u.
`ATGGCCTTTTGGCCTCACATGACAAATACAATCTCG` gave a fluorescence intensity of 485 a.u.
`CCAACCGGTGTCCACCGCGTGGTCCAGGCGACTTAT` has a fluorescence intensity of 78.5 a.u.
With `CAACATGCCAAATCGCACGTGACTCGAAACTATGGA` the fluorescence intensity was 9370 a.u.

Series 2 — technique: RNA Bind-n-Seq; form: RNA; medium: in vitro; tested at: 200 nM; setting: whole 134-nt RNA, ends assumed; with: 150 mM LiCl; relative to: input library; direction: higher = stronger binding; each molecule: 7-deaza-guanosine replaces G
Target: Fragile X messenger ribonucleoprotein 1, C-terminal low-complexity region (Fmr1, Mus musculus, UniProt P35922)
Shared flanks, not repeated: GGGAGUUCUACAGUCCGACGAUC … UGGAAUUCUCGGGUGUCAAGG
The log2 enrichment of `UGGCCCUGGUGGCAUGCGGGGGGGAAGAGGUGGCCUCAUGGAUCGUGGUGGUCCCGGUGGAAUGUUCAGAGGUGGCCGUGGUGGAGACAG` is reported as 0.553.
For `UGCCUGUAUGGAGUGGAAUGAAUGUUGCUGGUGUCUCUCUGAAGACUCUGCACCCAGAUUUAGGGACUGAUAAAGAUAAGGAACAGUGGA`, the log2 enrichment was 0.113.
`UAACCUUAGAGGAGGAUCUGAUGGAUAUGGCAGUGGACGUGGAUUUGGGGAUGGCUAUAAUGGGUAUGGAGGAGGACCUGGAGGUGGCAA` gave a log2 enrichment of 0.184.
`GCAGGAAGUAAAAACAAAUGGAAAUGCUUCGGAUAGUGGCAGGGCUGGGGGUUGCUAAGGAAAGGGUGGGAUGGGAGUGGGUAAAGAGUU` has a log2 enrichment of 1.47.
`CACAGACAACACGCACCCACACAGACACAGAGGGAAGGGGUUGGGAUGGGGACAGGGUGCACAGCAGGCCGGGGUAGGACCCCAGCCCCU` has a log2 enrichment of -0.136.
`UGGGAGGUGGAUUUUGUUUAUUUUUUUAGCUCAUUUCCAGGGGUGGGAAUUUUUUUUUAUUAUGUGUCAUGAAUAAAGUUGUUUUUGAAA` gave a log2 enrichment of -0.116.
`CCUCAAGUCCUGUGCUACACAUCGUAUGUACCGAAUCGGGGCGGGGCGGGCGGAAAGUAUUAUGUUACGCCGUUCGGAUCUGCACUUCCA` has a log2 enrichment of -0.767.
`UAACUUUAGAGGAGGAUCUGAUGGAGAUGGCAGUGGACGUGGAUUUGGGGAUGGCUAUAAUGGGUAUGGAGGAGGACCUGGAGGUGGCAA` has a log2 enrichment of 0.443.

Series 3 — target: CCNE1, cyclin fold, Cln2 fusion (human); technique: yeast growth competition, sequencing; medium: yeast; setting: weak parent motif; relative to: not given; direction: higher = stronger binding
Parent: WEE2 docking peptide (human); KELRQKLNFSYCE
Under “normalised enrichment score”, `KELRQKLNFAYCE [S10A]` is recorded as 0.0232.
`KELRQALNFSYCE [K6A]` — result for “normalised enrichment score”: -0.12.
`KELRQKANFSYCE [L7A]` — result for “normalised enrichment score”: -0.158.
`KELRQKLAFSYCE [N8A]` — result for “normalised enrichment score”: 0.172.
`AELRQKLNFSYCE [K1A]` — result for “normalised enrichment score”: 0.0212.
For `KEARQKLNFSYCE [L3A]`, “normalised enrichment score” read 0.0805.
Under “normalised enrichment score”, `KELRQKLNASYCE [F9A]` is recorded as 0.355.

Series 4 — Sequence: B1 (RNF121 RING domain); technique: yeast two-hybrid; medium: yeast; setting: mostly zero background; relative to: not given; direction: higher = stronger interaction
B1: RNF121 RING domain (UniProt Q9H920); chain MPTKHLSDSVCAVCGQQIFVDVSEEGIIENTYRLSCNHVFHEFCIRGWCIVGKKQTCPYCKEKVDLKRMFS
UBE2H UBC core domain (UniProt P62256) — “lacZ reporter activity”: 0.
It gave 0 for “lacZ reporter activity” (UBE2L6 UBC core domain (UniProt O14933)).
The “lacZ reporter activity” was 0 (UBE2Q2 UBC core domain (UniProt Q8WVN8)).
For UBE2V2 UBC core domain (UniProt Q15819): “lacZ reporter activity” read 0.
For UBE2N UBC core domain (UniProt P61088): “lacZ reporter activity” read 0.
It gave 0 for “lacZ reporter activity” (UBE2V1 UBC core domain (UniProt Q13404)).
For CDC34 UBC core domain (UniProt P49427): “lacZ reporter activity” read 0.
The “lacZ reporter activity” was 0 (UBE2E1 UBC core domain (UniProt P51965)).
For UBE2G2 UBC core domain (UniProt P60604): “lacZ reporter activity” read 0.
For UBE2U UBC core domain (UniProt Q5VVX9): “lacZ reporter activity” read 10700.

A few entries again (series 2):
`CACAGACAACACGCACCCACACAGACACAGAGGGAAGGGGUUGGGAUGGGGACAGGGUGCACAGCAGGCCGGGGUAGGACCCCAGCCCCU` has a log2 enrichment of -0.136.
`UGGGAGGUGGAUUUUGUUUAUUUUUUUAGCUCAUUUCCAGGGGUGGGAAUUUUUUUUUAUUAUGUGUCAUGAAUAAAGUUGUUUUUGAAA` gave a log2 enrichment of -0.116.
`CCUCAAGUCCUGUGCUACACAUCGUAUGUACCGAAUCGGGGCGGGGCGGGCGGAAAGUAUUAUGUUACGCCGUUCGGAUCUGCACUUCCA` has a log2 enrichment of -0.767.
